Measurements from different studies.
Each numbered part is a random draw from the data of one study; scales do not carry over between parts. Several values in a cell are separate wells, animals, samples, runs or records.
Sequence of UniProt Q99640 (whole entry, looked up): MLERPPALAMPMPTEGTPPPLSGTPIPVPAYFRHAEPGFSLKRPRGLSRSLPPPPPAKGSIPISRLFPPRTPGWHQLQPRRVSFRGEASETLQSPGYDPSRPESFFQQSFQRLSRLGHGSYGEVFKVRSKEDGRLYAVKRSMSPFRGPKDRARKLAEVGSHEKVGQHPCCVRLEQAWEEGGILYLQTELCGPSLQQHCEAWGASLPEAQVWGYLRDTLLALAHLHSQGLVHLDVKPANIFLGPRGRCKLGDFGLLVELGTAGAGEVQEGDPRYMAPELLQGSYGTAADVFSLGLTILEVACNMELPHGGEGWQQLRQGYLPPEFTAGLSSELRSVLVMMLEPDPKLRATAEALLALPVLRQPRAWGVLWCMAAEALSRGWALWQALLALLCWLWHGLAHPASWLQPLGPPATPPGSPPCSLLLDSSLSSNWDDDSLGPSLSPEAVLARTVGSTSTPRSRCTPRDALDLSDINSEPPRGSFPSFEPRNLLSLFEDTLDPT

Block 1
Structure (SMILES): Cc1ncsc1-c1ccc(C(CO)NC(=O)C2CC(O)CN2C(=O)C(C(C)C)n2cc(-c3ccc(COc4c(-c5c(C)c(F)cc6[nH]ncc56)c(C5CC5)cc5c(N6CC7CC6CN7)nc(OC6CCOCC6)nc45)cc3)nn2)cc1 (stereo not shown)
Method: qRT-PCR
Host: mouse, PK-59 xenograft
Medium: tumour
Notes: unit not given
assay	setting	how to read	mRNA level
item: DUSP6	10 mg/kg, 24 h	relative to: vehicle	0.0808 and 0.066 and 0.081 and 0.0656 and 0.0933 and 0.093
item: DUSP6	intravenous, 30 mg/kg, 2 h	relative to: vehicle, same time point	0.129 and 0.104 and 0.0714
item: SPRY4	intravenous, 10 mg/kg, 144 h	relative to: vehicle, same time point	0.00753 and 0.00388 and 0.00381
item: FOSL1	30 mg/kg, 24 h	relative to: vehicle	0.0405 and 0.04 and 0.036 and 0.0355 and 0.041
item: FOSL1	intravenous, 10 mg/kg, 144 h	relative to: vehicle, same time point	0.0106 and 0.0101 and 0.016
item: DUSP4	30 mg/kg, 144 h	relative to: vehicle	0.489 and 0.427
item: FOSL1	intravenous, 30 mg/kg, 144 h	relative to: vehicle, same time point	0.00864 and 0.011

Single results of other studies
SMILES	target or system	assay	system	setting	how to read	measurement	result
Cc1ccc(O)c(C)c1-c1cnc2[nH]c(-c3cnc(N4CCC(CN5CCN(c6ccc(NC7CCC(=O)NC7=O)cc6F)CC5)CC4)nc3)cc2c1C#N (stereo not shown)			Caco-2	2 µM, 2 h, pH 7.4		Papp A→B	0.31 ×10⁻⁶ cm/s
Cc1ccc2c(c1)OC(O)(C(=O)O)C(=O)N2Cc1ccccc1 (stereo not shown)	Arabidopsis thaliana		Col-0	3.125 µg/mL, seed germination, repetition mean		hypocotyl length	2.08 cm
Cc1ccc(O)c(C)c1-c1cnc2[nH]c(-c3cnc(N4CCC(CCN5CCN(c6cc7c(cc6F)c(N6CCC(=O)NC6=O)nn7C)CC5)CC4)nc3)cc2c1C#N	HCC1569	in-cell western, item: CDK1 phospho-Thr14		37.04 nM		pCDK1 (Thr14) level	57.1 RLU and 43.4 RLU
O=C(O)C1(O)Oc2cc(F)ccc2N(Cc2ccccc2)C1=O (stereo not shown)	Arabidopsis thaliana		Col-0	100 µg/mL, seed germination, single repetition		hypocotyl length	0.01 cm
Cc1ccc(O)c(C)c1-c1cnc2[nH]c(-c3cnc(N4CCC(CN5CCN(c6cc7c(cc6F)n(C6CCC(=O)NC6=O)c(=O)n7C)CC5)CC4)nc3)cc2c1C#N (stereo not shown)	PKMYT1 (Homo sapiens, UniProt Q99640)	degrader, automated immunoblot	HCC1569	10.00 nM		degradation	90.9%
O=C(O)C1(O)Oc2cc(Cl)ccc2N(Cc2ccccc2)C1=O (stereo not shown)	Arabidopsis thaliana		Col-0	12.5 µg/mL, seed germination, single repetition		hypocotyl length	2.03 cm and 2 cm and 2.02 cm and 2.08 cm and 2.04 cm
Cc1ccc(O)c(C)c1-c1cnc2[nH]c(-c3cnc(N4CCC(CCN5CCN(c6ccc(N7CCC(=O)NC7=O)cc6F)CC5)CC4)nc3)cc2c1C#N	HCC1569	in-cell western, item: CDK1 phospho-Thr14		4.57 nM		pCDK1 (Thr14) level	9.15 RLU and 11.5 RLU
O=C(O)C1Oc2cc(F)ccc2N(Cc2ccccc2)C1=O (stereo not shown)	Arabidopsis thaliana		Col-0	100 µg/mL, seed germination, repetition mean		hypocotyl length	1.54 cm
Cc1nc(C)c(C=[N+]([O-])C(C)(C)C)nc1C		Western blot	MPTP mouse model, substantia nigra nuclei	90 mg/kg, unit not given	relative to: β-actin	Nrf2 protein level	115 and 89.9 and 112

Repeated from above (single results of other studies):
SMILES	target or system	assay	system	setting	how to read	measurement	result
Cc1ccc(O)c(C)c1-c1cnc2[nH]c(-c3cnc(N4CCC(CN5CCN(c6ccc(NC7CCC(=O)NC7=O)cc6F)CC5)CC4)nc3)cc2c1C#N (stereo not shown)			Caco-2	2 µM, 2 h, pH 7.4		Papp A→B	0.31 ×10⁻⁶ cm/s
